Assay results from different studies.
A part holds a random share of what one study measured.

Study 1
Target: PABPC1L2, full length, GST fusion (mouse, UniProt A0ABA7IW68)
Technique: RNAcompete
Molecule type: RNA
Sample: in vitro
Concentration: 20 nM
Notes: 7-mer, probes averaged, single round
Baseline: mean of 7-mers
Direction: higher = stronger binding
Residues (chain): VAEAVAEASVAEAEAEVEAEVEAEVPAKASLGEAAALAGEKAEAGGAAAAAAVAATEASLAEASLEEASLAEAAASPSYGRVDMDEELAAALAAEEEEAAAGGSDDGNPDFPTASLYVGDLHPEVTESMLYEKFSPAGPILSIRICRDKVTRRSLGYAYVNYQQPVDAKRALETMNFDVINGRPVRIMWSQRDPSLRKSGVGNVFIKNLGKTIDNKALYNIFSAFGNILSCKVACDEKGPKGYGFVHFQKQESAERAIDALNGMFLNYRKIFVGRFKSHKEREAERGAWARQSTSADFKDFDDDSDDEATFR
Oligonucleotide	7-mer Z-score
UCUUUCA	-0.322
AUCCUGG	-0.108
UAUUAUU	-0.327
CAUGAGU	-0.182
UUGAGCA	-0.155
AAGUCUA	-0.108

Study 2
Target: Prothrombin, mature alpha-thrombin (F2, Homo sapiens, UniProt P00734)
Technique: aptamer microarray, sandwich
Molecule type: DNA with 2'F-ANA
Sample: in vitro
Concentration: 200 nM
Notes: whole 15-mer aptamer, many near background
Added: Cy3 exosite-II aptamer, 400 nM
Direction: higher = stronger binding
Oligonucleotide: GGTTGGTGTGGTTGG
Modification	mean fluorescence intensity
2'F-ANA at 1 2 5 6 10 11	56.3 a.u.
2'F-ANA at 2 4 5 6 8 10 11 13 15	48.5 a.u.
2'F-ANA at 2 5 7 8 9 11 12 15	157 a.u.
2'F-ANA at 1 5 8 12 14	45.6 a.u.
2'F-ANA at 1 2 5 7 8 9 11 15	59.5 a.u.
2'F-ANA at 1 2 6 7 8 9 12 13 15	245 a.u.

Study 3
Target: Sal-like protein 4, full length isoform A (SALL4, Homo sapiens, UniProt Q9UJQ4, residues 1-1053)
UniProt Q9UJQ4, sequence (whole entry, looked up): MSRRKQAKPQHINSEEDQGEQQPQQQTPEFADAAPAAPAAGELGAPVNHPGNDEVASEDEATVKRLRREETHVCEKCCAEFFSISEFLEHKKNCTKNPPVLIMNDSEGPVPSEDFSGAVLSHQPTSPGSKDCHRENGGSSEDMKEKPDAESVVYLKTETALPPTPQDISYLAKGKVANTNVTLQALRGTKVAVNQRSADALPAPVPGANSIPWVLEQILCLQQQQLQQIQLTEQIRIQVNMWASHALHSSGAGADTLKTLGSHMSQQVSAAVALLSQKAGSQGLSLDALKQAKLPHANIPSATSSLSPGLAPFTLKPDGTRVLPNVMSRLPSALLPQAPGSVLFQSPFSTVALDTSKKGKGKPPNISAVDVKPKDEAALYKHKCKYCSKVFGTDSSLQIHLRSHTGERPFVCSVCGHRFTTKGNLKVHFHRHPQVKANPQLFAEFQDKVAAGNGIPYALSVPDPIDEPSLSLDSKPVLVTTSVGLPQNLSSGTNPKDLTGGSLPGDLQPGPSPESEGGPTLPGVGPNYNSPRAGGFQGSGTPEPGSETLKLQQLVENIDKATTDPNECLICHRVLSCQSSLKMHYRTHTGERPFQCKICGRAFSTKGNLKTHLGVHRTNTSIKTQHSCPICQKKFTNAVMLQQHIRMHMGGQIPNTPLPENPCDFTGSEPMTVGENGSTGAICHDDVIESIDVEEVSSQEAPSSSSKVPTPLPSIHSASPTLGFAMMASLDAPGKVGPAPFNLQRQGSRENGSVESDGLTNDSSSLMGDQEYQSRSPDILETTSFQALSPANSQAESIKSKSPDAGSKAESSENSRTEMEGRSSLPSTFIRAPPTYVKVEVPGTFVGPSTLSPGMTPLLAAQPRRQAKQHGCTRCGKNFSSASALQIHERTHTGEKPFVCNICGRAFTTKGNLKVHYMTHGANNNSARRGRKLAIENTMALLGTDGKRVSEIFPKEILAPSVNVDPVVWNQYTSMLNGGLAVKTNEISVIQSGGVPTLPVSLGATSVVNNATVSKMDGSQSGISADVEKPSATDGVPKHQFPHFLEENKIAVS
Technique: universal PBM
Molecule type: double-stranded DNA, one strand shown
Sample: in vitro
Concentration: 600 nM
Notes: 8-mer, flanks averaged, mean of replicates
Direction: higher = stronger binding
Oligonucleotide	E-score
TATCTGGA	0.0929
GAGACCCA	-0.224
AACACATA	0.322
TAGCATCA	0.128
ACATCTCG	0.0806
AATAGATC	0.22
CTCTAGTA	0.0973

Single results of other studies
Molecule	target	test	test system	conditions	scale	endpoint	result
PhoQ, residues 284 288 289 292 302 303 ALAMYF	PhoP, residues 12 14 15 18 19 TPWLV (Escherichia coli, UniProt P23836)	Sort-seq, measured: YFP reporter	E. coli	PhoQ-PhoP variant library, added: 10 µM Mg2+	baseline: high Mg2+ state, higher = stronger signaling	fold induction	6.7

For quick reference, copied from above (study 3):
Oligonucleotide	E-score
CTCTAGTA	0.0973
